Assay results gathered from unrelated publications.
Each line is one published result; not all experiments were run side by side. ± marks the error that the study gave.

Clc1ccc(C(c2c[nH]c3ccccc23)c2c[nH]c3ccccc23)cc1 — Cmax (C57BL/6 mouse, male, midbrain; oral, 25 mg/kg): 3620 ± 1430 ng/g
Cc1ccc(NC(=O)N2CCCN3CCC(c4ccc(C#CC5(O)CCCCC5)cc4)C3C2)cc1 (stereo not shown) — Cmax (CD-1 mouse, plasma; oral, 10 mg/kg, single dose): 94.5 ng/mL
O=C(Cc1ccc(-c2ccc(OCCN3CCOCC3)cc2)cn1)NCc1ccc(F)cc1 — Cmax (ICR mouse; oral, 10 mg/kg): 2880 ± 1220 ng/mL
CC1(C)CC[C@@]2(CO)C(=C3C=C[C@@H]4[C@@]5(C)CC[C@H](O)[C@@](C)(CO)[C@@H]5CC[C@@]4(C)[C@]3(C)C[C@@H]2O)C1 — Cmax (UHPLC-MS/MS; mouse, plasma; oral, 50 mg/kg of saikosaponin a): 66.3 ng/mL
CCCCCCCCCCCCCCCC(=O)NCCOCCOCCOCCOCCOCCOCCOCCOCCC(=O)NCCCC[C@H](NC(=O)CNC(=O)[C@@H]1CSSC[C@H](N)C(=O)N[C@@H](Cc2ccc(O)cc2)C(=O)N[C@@H]([C@@H](C)CC)C(=O)N[C@@H](CCC(N)=O)C(=O)N[C@@H](CC(N)=O)C(=O)N1)C(=O)NCC(N)=O — Cmax (male C57BL/6J mouse, plasma; subcutaneous, 1 mg/kg): 0.331 µM
C=CC(=O)Nc1cc(Nc2nccc(-n3ccc4nc(OC)ccc43)n2)c(OC)cc1N(C)CCN(C)C — Cmax (BALB/c nude mouse, H1975 xenograft, tumour; oral, 60 mg/kg): 4120 ng/g
NC(=O)c1ccc(C(=O)NOCc2ccc(Sc3cccc(Cl)c3)c(C(F)(F)F)c2)cc1 — Cmax (male ICR mouse, plasma; intravenous, 10 mg/kg): 51300 ng/mL
COc1ccc2ccc3c(c2c1)C=[N+]1C2CCCCC2[N+]2=Cc4cccc(OC)c4[O][Au-]21[O]3.F[P-](F)(F)(F)(F)F (stereo not shown) — Cmax (ICP-MS, item: gold; mouse, serum; intraperitoneal, 5 mg/kg): 2320 ng/mL
CCCCCCCCN(CCC(=O)Nc1ccccc1)C(=O)c1ccccn1 — Cmax (C57BL/6 mouse, Lmna +/+, both sexes, serum; intraperitoneal, 40 mg/kg): ~40 µM
N=C(N)NCCC[C@@H]1NC(=O)[C@H](Cc2c[nH]c3ccccc23)NC(=O)[C@@H](CC2CCCCC2)NC(=O)[C@@H]2CCCN2C(=O)[C@@H](NC(=O)CCc2ccccc2)CCCNC1=O — Cmax (C57BL/6J mouse, plasma; oral, 1 mg/kg, single dose): 770 ng/mL
COc1ccc(NC(=O)N2CCCN3CCC(c4ccc(C#Cc5ccccc5)cc4)C3C2)cc1 (stereo not shown) — Cmax (CD-1 mouse, plasma; oral, 10 mg/kg, single dose): 325 ng/mL
N#CC1(c2ccc3c(N)ncnn23)OC(COP(=O)(O)O)C(O)C1O (stereo not shown) — Cmax (LC-MS/MS; CD-1 mouse, kidney; oral, 100 mg/kg of remdesivir): 27400 nmol/kg
CCc1nc(N)nc(N)c1C#C[C@H](C)c1cc(-c2cc(C)nc(C)c2)ccc1Cl — Cmax (mouse, plasma; oral, 16 mg/kg): 400 ng/mL
C=CC(=O)Nc1cccc(-c2cnc3[nH]cc(C(=O)NC(C)(C)C)c3n2)c1 — Cmax (mouse NOD/SCID female, plasma; oral, 50 mg/kg): 1000 ng/mL
O=c1[nH]c2ccccc2n1CCCCCN1CCN(c2ccc(F)cc2)CC1 — Cmax (C57BL/6 mouse, plasma; subcutaneous, 5 mg/kg): 2900 ± 800 ng/mL
CCNC(=O)c1noc(-c2cc(C(C)C)c(O)cc2O)c1NC(=O)CCN1CCOCC1 — Cmax (CD1 nude mouse, A-431 xenograft, plasma; intraperitoneal, 80 mg/kg single): 2950 ng/mL

For quick reference, copied from above:
C=CC(=O)Nc1cccc(-c2cnc3[nH]cc(C(=O)NC(C)(C)C)c3n2)c1 — Cmax (mouse NOD/SCID female, plasma; oral, 50 mg/kg): 1000 ng/mL
Cc1ccc(NC(=O)N2CCCN3CCC(c4ccc(C#CC5(O)CCCCC5)cc4)C3C2)cc1 (stereo not shown) — Cmax (CD-1 mouse, plasma; oral, 10 mg/kg, single dose): 94.5 ng/mL
